# Experimental data from different studies.
# Protocols differ between the studies behind these lines.
# Cell line: Jurkat
Compound,test,conditions,measurement,value
C(=C/c1ccccc1)/c1ccccc1,"apoptosis, Hoechst nuclear staining",24 h,EC50,50 µM
O=C1c2cccc3cccc(c23)C12NC(Cc1ccc(O)cc1)C([N+](=O)[O-])C2c1ccc(Cl)cc1 (centres unmarked),"cell growth or viability, MTT",48 h,IC50,38.4 µM
Cc1ccc(C(C)C)cc1.[Cl-].[Cl-].[Ru+2].c1ccc(P(=Nc2cccc3cccnc23)(c2ccccc2)c2ccccc2)cc1,flow cytometry,"concentration not given, together with: z-VAD-fmk 50 µM",cells with ΔΨm loss,20%
CCC(/C=C/C(=O)O)=C\C(=O)C[C@H](C)C[C@@H](C)CC[C@H](O)[C@H](C)C(=O)CC(O)[C@H](C)[C@@H](C)OC(=O)C[C@@H](O)C1=C(C)C(=O)OC1=O (some centres unmarked),IL-2 production,"20 µM, 24 h, together with: anti-CD3/anti-CD28 antibodies",inhibition,98%
NCCCC[C@H](NC(=O)[C@H](CCCCN)NC(=O)[C@@H](N)CCCCN)C(=O)NCC(=O)NCC(=O)NCCCCCCCCNC(=O)COc1ccc(-c2ccccn2)cc1,confocal microscopy,"10 µM, 1 h, 4",LysoTracker Red and ER-RFP emission,decreased
CC(=O)N[C@@H](Cc1cccnc1)C(=O)N[C@@H](CC(=O)O)C(=O)N[C@@H](Cc1c(F)c(F)c(F)c(F)c1F)C(=O)N[C@@H](Cc1ccccc1)C(=O)N[C@@H](CC(=O)O)C(=O)COC(=O)c1ccc(C)s1,"cell death, apoptosis inhibitor, CellTiter-Glo viability","30 min pretreatment, up to, together with: MegaFasL 10 ng/mL",highest concentration without protection,> 100 µM
C1=CCCC=CCC1.F[P-](F)(F)(F)(F)F.[Pt+][c]1ccccc1P(=Nc1ccccc1)(c1ccccc1)c1ccccc1,,"concentration not given, 24 h, together with: z-VAD-fmk",cells with decreased ΔΨm,32%
C=C/C(=C/CC[C@H](C)C[C@@H](C)CC[C@H](O)[C@H](C)C(=O)CC(O)[C@H](C)[C@@H](C)OC(=O)C[C@@H](O)C1=C(C)C(=O)OC1=O)CC (some centres unmarked),IL-2 production,"20 µM, 24 h, together with: anti-CD3/anti-CD28 antibodies",inhibition,98%
Cc1ccc(C(C)C)cc1.O=C(N=P(c1ccccc1)(c1ccccc1)c1ccccc1)c1ccccn1.[Cl-].[Cl-].[Ru+2],flow cytometry,concentration not given,cells with ΔΨm loss,80%
O=C1c2cccc3cccc(c23)C12NC(Cc1ccc(O)cc1)C([N+](=O)[O-])C2c1ccccc1 (centres unmarked),flow cytometry,"IC50, 24 h",active caspase-3 positive cells,> 85%
Cc1[nH][n+]([Pt-2]([Cl])([n+]2[nH]c(C)c(CSCc3ccccc3)c2C)[n+]2[nH]c(C)c(CSCc3ccccc3)c2C)c(C)c1CSCc1ccccc1.[Cl-],annexin V/7-AAD flow cytometry,1 µM,apoptotic cells,23.6%

# Repeated from above:
Compound,test,conditions,measurement,value
O=C1c2cccc3cccc(c23)C12NC(Cc1ccc(O)cc1)C([N+](=O)[O-])C2c1ccc(Cl)cc1 (centres unmarked),"cell growth or viability, MTT",48 h,IC50,38.4 µM
